Results gathered from unrelated publications.
Each numbered part is a random draw from the data of one study; scales do not carry over between parts.

Block 1 — technique: RNA Bind-n-Seq; molecule type: RNA; sample: in vitro; concentration: 200 nM; setting: whole 134-nt RNA, ends assumed; added: 150 mM KCl; reference: input library; direction: higher = stronger binding; measurement: log2 enrichment
Target: Ras GTPase-activating protein-binding protein 1, full length (G3BP1, Homo sapiens, UniProt Q13283)
Sequence of UniProt Q13283 (whole entry, looked up): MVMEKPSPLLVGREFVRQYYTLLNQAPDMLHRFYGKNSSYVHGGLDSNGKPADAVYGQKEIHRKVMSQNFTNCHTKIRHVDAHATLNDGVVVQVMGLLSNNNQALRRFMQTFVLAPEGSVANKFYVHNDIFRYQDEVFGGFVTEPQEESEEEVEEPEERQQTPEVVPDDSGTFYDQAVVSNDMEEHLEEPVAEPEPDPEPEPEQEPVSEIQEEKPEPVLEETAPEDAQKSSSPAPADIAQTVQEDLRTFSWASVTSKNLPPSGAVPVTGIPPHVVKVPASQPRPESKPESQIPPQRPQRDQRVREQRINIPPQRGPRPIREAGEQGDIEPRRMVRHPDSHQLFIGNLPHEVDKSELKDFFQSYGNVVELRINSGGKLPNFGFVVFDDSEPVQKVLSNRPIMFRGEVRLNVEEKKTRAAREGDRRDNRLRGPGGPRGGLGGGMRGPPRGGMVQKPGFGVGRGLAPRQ
Shared flanks, not repeated: GGGAGUUCUACAGUCCGACGAUC … UGGAAUUCUCGGGUGUCAAGG
GUCCUGUGCUACACAUCGUAUGUACCGAAUCGGGAAAAAAAGGGUUUUUGGGUUUGGGAAAGUAUUAUGUUACGCCGUUCGGAUCUGCAC: -0.519
AUGAAGAUGAAGAAGAGGAUGAUGAGGACGAGGAUGACGACGACGACGAAGAUGAUGAAGAUGAUGAUGAUGAAGAUGAUGAGGAGGAGG: 1.09
ACCAUACUUGACAACUUCUGAUUGAAUGCCCAUGCCCAAUGCCAACAUCCACGAACGCCAAUGACCAAUGCAGUACAAUGCCAGUGUUUC: -0.195
AAGUCCUGUGCUACACAUCGUAUGUACCGAAUCGGUUUUUGGUUUUUGGUUUUUGGAAAGUAUUAUGUUACGCCGUUCGGAUCUGCACUU: -1.45
UGGCCCUCAAGCACUGCACAGAGGCCCUUCUUUCUCUUGGCCAGUACUCCAUGGCAGACUUCACAGGGCCUUGUCCAUUGGAAAUAGAAC: -1.78
UGGGAGGUGGAUUUUGUUUAUUUUUUUAGCUCAUUUCCAGGGGUGGGAAUUUUUUUUUAAUAUGUGUCAUGAAUAAAGUUGUUUUUGAUA: 0.231
GUCCUGUGCUACACAUCGUAUGUACCGAAUCAAACCCAAAUUUUUAAACCCCCCCAAAAAAGUAUUAUGUUACGCCGUUCGGAUCUGCAC: -0.00791
ACCAUGCAGGUGGGCAUCUUUGGGAAGUGGGGCAAGGGGGGGAUAGGGAGGGGGGUAACACUUUGGGAACAGGUGGUCCGAGGUCGUUUC: 1.33
GAGUCCGGUUCGUGUUCGUCCGCGGAGAUCUCUCUCAUCUCGCUCGGCUGCGGGAAAUCGGGCUGAAGCGACUGAGUCCGCGAUGGAGGU: -1.57
UUUCUUCCCCCACAGUUCAUCCAUGAGCUCGGAUUUCCCACAUUACAACUUCAGGAUGCCUAAUAUUGGAUUCCAGAAUCUGCCUCUCAA: 1.12
CUUGACCCUCAACACCAACCAUGGGCAUAUCCUGGUGGAUUACUCCAAGAACCUGGUGACGGAGGACGUGAUGCGGAUGCUGGUGGACUU: -1.41
UGGGAGGUGGAUUUUGUGUAUUUUUUUAGCUCAUUUCCAGGGGUGGGAAUUUUUUUUUAAUAUGUGUCAUGAAUAAAGUUGUUUUUGAAA: 0.177
CCUGUGCUACACAUCGUAUGUACCGAAUCGGGGUUUUUUGGUUUUUUGGGUUUUUUGGGGAAAGUAUUAUGUUACGCCGUUCGGAUCUGC: -0.835
GCAGGAAGUAAAAACAAAUGGAAAUGCUUCGGAUAGUGGCAGGGGUGGGGAAAGCUAAGGAAAGGGUGGGAUGGGAGUGGGUAAAGAGUU: 1.1

Block 2 — technique: RNA Bind-n-Seq; molecule type: RNA; sample: in vitro; concentration: 365 nM; reference: no-protein control; direction: higher = stronger binding; measurement: RBNS enrichment (R)
Target: RNA binding protein fox-1 homolog 2, RRM domain, GST-SBP tag (RBFOX2, Homo sapiens, UniProt O43251-10, residues 100-194)
Setting: natural RNA segment, single round, ends assumed
Shared flanks, not repeated: GGGAGUUCUACAGUCCGACGAUC … UGGAAUUCUCGGGUGCCAA
Residues (chain): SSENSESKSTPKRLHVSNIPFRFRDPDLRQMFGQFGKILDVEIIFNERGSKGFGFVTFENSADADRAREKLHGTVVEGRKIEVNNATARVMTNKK
CAUAAAAGCAGAAGGUGUGCUAUUCACAGUACCAUGCGAGUAGCCCACAGUUAAUUCCCGGCAGAUUCUUUGGCUGUGUUUUAUCUUUAAUGAACGUUUCUGACUAAUAU: 0.332
CUAACUCCAAAGCUCUCCACACUAACAUUGUUUUGCUUAUUAUUGCUCCAAAGAUAAUUACCCCAACACCUUAUCAAUGCUAUACUUCCUCUCAUAAUGGCAGUGUAGGU: 1.02
UAGCAAAAUUUCUAUUUGUACGUUCACUAAUUAUCUACAAGGACAAAAUCAGUUGUAUUUACAAAACUCUACUUCAGUGUUUGUUUUAGUUUUUUUUUUUACUGAAACUU: 0.636
CUAGGUGAGUGUGCCAAGCUCAGGAUUCCAACUGGUGCCUCUGAGCUUCCCAAUCAAUACUUCCUGGAGCCAGCCCCACCCACCCCUGAGAACAGAGGUCAGACACAGCU: 0.353
ACCCAGAAAGACUGGAGAAGGUAUGUGCUUUAAGUGCUGCUCUACCUGAAAAGAAAUCCUUUAAAUUACCUAUGGAAGUGAUGUCCUCAGAUAAUCUUAAUGACUAUUUU: 0.232
ACUUCCAGGUGGUCUCCUGAGUGUCUGGCUUGAUAAUGCCCUCAAUUCAGGAGUGAGCCUCUGUGACCCUUGGGGUGCUCGCAGAAGGCCUCUCCAAGCAGUCAAGCCCU: 0.233
UAGGGCUGAAAAGAAUGACCUACGUUUCUGUAUACAGCUGUGUUGCUUUUGAUGUUGUGUUACUGUACACAGAAGUGUGUGCACUGAGGCUCUGCGUGUGGUCCGUAUGG: 1.35
UUCAGUAUUUUAUACAACUACUGCCACAUCCUUAUACUUUAUUGCUUUUCUGUCUUCUUCAACCUGGGAGAGACCCUGAAUUUGAGUGUGUUCUCUAAUCAAUAGUGGUU: 0.666
CCAGUUAACAUGUAGAGCAUGGGCUCAAGAUGAAACCUUGUGUUUAUAGAACGGAUGUUUAGGUGAAGAAAUUGGUUCUUGGUUAUGUUUACAGCACUUGGGAUUGUGUU: 3.99
UGGUUCCAAACCAGAUUUCCUGUGAUUCUAUACUAAUAAUUUUUGAUAUAACCCUUUGCUUCUUAUAAUGAGUGCGAUAUAUGUUGUCGAGGCUGUUCUUCAAGAAUUAA: 0.452
CAGGGGAGGAUGGUGGCCACGUACUAAGAUCUUGGCUCUCCAGCCCGUGUUUCCUAAGGACUCCGCAGACAAGGCUUUCACCUGCGUGUUCAUCUGUGGGUCAUCGAGGC: 0.546
UCAGUUAAUCACUCCCACAACUUUGAGCUGUGAGUUUUACUGGUGGAAGGAACUUUAACAGGUCUUCGCUCUUGUCAUUAGAUAUCAAAGAACUGAAAUUAGUUGGAAUU: 0.285

Block 3 — technique: aptamer microarray, sandwich; molecule type: DNA with 2'F-ANA; sample: in vitro; concentration: 200 nM; added: Cy3 exosite-II aptamer, 400 nM; direction: higher = stronger binding; measurement: mean fluorescence intensity; sequence: GGTTGGTGTGGTTGG
Target: Prothrombin, mature alpha-thrombin (F2, Homo sapiens, UniProt P00734)
Setting: whole 15-mer aptamer, many near background
2'F-ANA at 2 4 10 12 13 14 15: 65.6 a.u.
2'F-ANA at 2 4 5 8 9 10 14 15: 79.5 a.u.
2'F-ANA at 1 3 4 5 6 9 11 12 13 14 15: 48.1 a.u.
2'F-ANA at 1 2 4 7 10 11 12 13 14 15: 47.8 a.u.
2'F-ANA at 4 6 8 11 12 14: 104 a.u.
2'F-ANA at 3 4 5 6 8 11 13 14 15: 49.7 a.u.
2'F-ANA at 1 2 3 7 9 11 14 15: 69.5 a.u.
2'F-ANA at 1 2 7 11 12 13: 243 a.u.
2'F-ANA at 3 4 6 7 9 10 11 13 14: 167 a.u.
2'F-ANA at 1 2 6 8: 180 a.u.
2'F-ANA at 3 4 5 6 7 9 11 12 13 14: 62.4 a.u.
2'F-ANA at 3 5 8 10 11 13 14: 58.4 a.u.
2'F-ANA at 3 6 7 8 9 11 12 14: 650 a.u.
2'F-ANA at 2 4 5 7 8 10 11 12 13: 49.7 a.u.
2'F-ANA at 2 4 5 9 11: 74.7 a.u.
2'F-ANA at 1 5 6 9 15: 62.5 a.u.
2'F-ANA at 1 2 3 5 6 7 8 10 12 13 15: 60.7 a.u.
2'F-ANA at 1 3 5 6 8 9 11 12 14 15: 46 a.u.
2'F-ANA at 1 3 4 6 7 8 9 12 13: 232 a.u.
2'F-ANA at 1 2 4 6 7 8: 162 a.u.
2'F-ANA at 4 9 10 11 13 14: 58.9 a.u.
2'F-ANA at 3 4 5 9 10 11 12: 120 a.u.
2'F-ANA at 5 6 9 12 13 14 15: 43.9 a.u.
2'F-ANA at 3 4 6 7 9 11 13: 387 a.u.
2'F-ANA at 1 3 4 7 8 9 10 11 15: 59.9 a.u.

Block 4 — technique: universal PBM; molecule type: double-stranded DNA, one strand shown; sample: in vitro; concentration: 600 nM; direction: higher = stronger binding; measurement: E-score
Target: Sal-like protein 4, full length isoform A (SALL4, Homo sapiens, UniProt Q9UJQ4, residues 1-1053)
Sequence of UniProt Q9UJQ4 (whole entry, looked up): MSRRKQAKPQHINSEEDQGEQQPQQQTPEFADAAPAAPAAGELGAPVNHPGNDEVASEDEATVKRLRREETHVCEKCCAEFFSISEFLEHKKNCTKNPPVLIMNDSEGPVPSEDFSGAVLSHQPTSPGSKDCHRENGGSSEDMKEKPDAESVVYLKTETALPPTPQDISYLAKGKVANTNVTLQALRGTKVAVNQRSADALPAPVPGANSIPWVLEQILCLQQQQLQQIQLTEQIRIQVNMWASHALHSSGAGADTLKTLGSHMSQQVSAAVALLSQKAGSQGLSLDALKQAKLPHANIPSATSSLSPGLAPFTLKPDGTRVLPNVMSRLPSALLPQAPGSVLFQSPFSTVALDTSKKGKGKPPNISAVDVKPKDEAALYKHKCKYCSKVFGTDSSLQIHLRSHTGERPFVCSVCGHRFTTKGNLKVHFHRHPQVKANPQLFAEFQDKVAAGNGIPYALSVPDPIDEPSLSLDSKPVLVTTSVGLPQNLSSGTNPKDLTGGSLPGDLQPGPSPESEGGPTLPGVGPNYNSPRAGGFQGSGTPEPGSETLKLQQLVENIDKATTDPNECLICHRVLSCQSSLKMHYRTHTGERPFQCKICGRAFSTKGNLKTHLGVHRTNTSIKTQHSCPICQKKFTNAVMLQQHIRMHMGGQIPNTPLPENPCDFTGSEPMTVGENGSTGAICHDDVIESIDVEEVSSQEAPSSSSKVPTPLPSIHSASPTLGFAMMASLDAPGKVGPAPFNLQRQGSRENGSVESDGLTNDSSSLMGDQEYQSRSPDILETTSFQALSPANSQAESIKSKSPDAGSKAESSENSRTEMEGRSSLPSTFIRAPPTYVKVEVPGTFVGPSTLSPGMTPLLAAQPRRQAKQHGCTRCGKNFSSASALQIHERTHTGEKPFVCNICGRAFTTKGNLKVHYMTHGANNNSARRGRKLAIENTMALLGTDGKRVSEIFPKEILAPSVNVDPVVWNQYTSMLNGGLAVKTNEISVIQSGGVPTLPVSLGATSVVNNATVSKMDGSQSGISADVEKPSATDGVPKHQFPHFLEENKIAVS
Setting: 8-mer, flanks averaged, mean of replicates
CACTCCTC: -0.161
AAAACTGC: 0.0234
ATTGCGGA: 0.0827
CGGGTACA: -0.241
CGATGCAA: -0.109
CGTGTCCC: -0.259
AATTGACG: 0.0989
AGGCTTGC: -0.183
CAGGCCCG: -0.361
CCGCCTAC: -0.167
CGCTGAGC: -0.177
CCGAGGAG: -0.215
AAACACCA: -0.0252
CAGAAAGG: -0.0827
CAGGTCCG: -0.337
GACTTGGA: -0.146
AACGAGAT: 0.0704
CAGCACCG: -0.312
CCTCAGAG: -0.314
AATGATCC: 0.111
AGTGCTTC: -0.0467
ACCATTTA: 0.231
ATCGCGCC: -0.196

Block 5 — technique: protein-binding microarray; molecule type: double-stranded DNA, one strand shown; sample: in vitro; concentration: 2200 nM top; setting: 60-bp whole probe; added: salmon DNA 0.4 mg/ml; reference: random background probes; direction: higher = stronger binding; measurement: fitted relative affinity; shared flanks, not repeated: GCCTAGCAC … GTCTTGATTCGCTTGACGCTGCTG
Target: Interferon regulatory factor 7, full length, phosphomimetic (IRF7, Homo sapiens, UniProt Q92985, residues 1-503, S471D/S472D/S475D/S476D/S477D/S483D/S484D/S487D)
Construct (chain): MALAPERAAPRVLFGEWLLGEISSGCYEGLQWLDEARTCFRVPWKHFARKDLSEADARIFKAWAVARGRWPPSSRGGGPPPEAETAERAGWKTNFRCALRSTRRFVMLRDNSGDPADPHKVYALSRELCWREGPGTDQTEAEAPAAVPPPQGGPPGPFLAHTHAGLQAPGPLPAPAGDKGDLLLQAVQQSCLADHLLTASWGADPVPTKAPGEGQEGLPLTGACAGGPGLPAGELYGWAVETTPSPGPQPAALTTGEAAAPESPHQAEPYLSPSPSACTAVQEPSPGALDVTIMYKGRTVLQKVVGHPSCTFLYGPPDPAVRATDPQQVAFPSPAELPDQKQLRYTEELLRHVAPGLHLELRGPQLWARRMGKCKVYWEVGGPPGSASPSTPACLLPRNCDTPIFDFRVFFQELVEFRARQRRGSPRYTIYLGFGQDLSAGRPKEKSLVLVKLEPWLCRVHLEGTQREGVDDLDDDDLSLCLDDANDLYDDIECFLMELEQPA
GTAGGTATCGGTCTCGGTTAGTGCTAG: 0.753 z-score
CAGTTTTCCTATGTCATTTAGTGCTAG: 2.96 z-score
GACGATATCGGGACAGGAGACGTGCTA: -0.268 z-score
TTAGAACTGGGGACGGGATTAGTGCTA: -0.311 z-score
TCACATTCACCTGTCGTACTGTGCTAG: 2.7 z-score
GACGATTCCAGGTTCGAGACGTGCTAG: 0.785 z-score
GACTATTTCGGGACTGGAGACGTGCTA: 1.06 z-score
TTAGGTATCAGGTTTCGGTTAGTGCTA: 4.91 z-score
GACGGTCTCGATCTCGGGACGTGCTAG: -0.0333 z-score
TCAGTTTGCCTCCTTCAGACTGTGCTA: 2.33 z-score
CACGGTTTCCTTTCCCTGACGTGCTAG: 4.89 z-score
GACGGAATCGACTTTCGGGACGTGCTA: 3.28 z-score
TTAGGACTGCTTTTTCTTTAGTGCTAG: 0.588 z-score
TCATTTATAAATTATCTTACTGTGCTA: 0.415 z-score
TTAGGCCTCCTTCTCCTTTAGTGCTAG: 0.774 z-score
AACGAACTGGGGTATCGAGACGTGCTA: -0.00261 z-score
GACGATATCTGGACTGGAGACGTGCTA: 0.0116 z-score
TTAGGTTTCGGACTGGCTTAGTGCTAG: 3.12 z-score
TTAGGTATCGCTCTCGGTTAGTGCTAG: 0.917 z-score
GACGGTATCGGGACTGGTGACGTGCTA: -0.393 z-score

Excerpt of the above (block 5):
CAGTTTTCCTATGTCATTTAGTGCTAG: 2.96 z-score
TTAGGTATCAGGTTTCGGTTAGTGCTA: 4.91 z-score
GACTATTTCGGGACTGGAGACGTGCTA: 1.06 z-score
GACGATATCGGGACAGGAGACGTGCTA: -0.268 z-score
TCATTTATAAATTATCTTACTGTGCTA: 0.415 z-score
GACGATTCCAGGTTCGAGACGTGCTAG: 0.785 z-score
TTAGAACTGGGGACGGGATTAGTGCTA: -0.311 z-score
GACGGTATCGGGACTGGTGACGTGCTA: -0.393 z-score
GTAGGTATCGGTCTCGGTTAGTGCTAG: 0.753 z-score
TCACATTCACCTGTCGTACTGTGCTAG: 2.7 z-score
TCAGTTTGCCTCCTTCAGACTGTGCTA: 2.33 z-score
AACGAACTGGGGTATCGAGACGTGCTA: -0.00261 z-score
TTAGGACTGCTTTTTCTTTAGTGCTAG: 0.588 z-score
